Results gathered from unrelated publications.
Numbered parts are unrelated; each lists some results of a single study.
Chain of UniProt Q6PHR2 (whole entry, looked up): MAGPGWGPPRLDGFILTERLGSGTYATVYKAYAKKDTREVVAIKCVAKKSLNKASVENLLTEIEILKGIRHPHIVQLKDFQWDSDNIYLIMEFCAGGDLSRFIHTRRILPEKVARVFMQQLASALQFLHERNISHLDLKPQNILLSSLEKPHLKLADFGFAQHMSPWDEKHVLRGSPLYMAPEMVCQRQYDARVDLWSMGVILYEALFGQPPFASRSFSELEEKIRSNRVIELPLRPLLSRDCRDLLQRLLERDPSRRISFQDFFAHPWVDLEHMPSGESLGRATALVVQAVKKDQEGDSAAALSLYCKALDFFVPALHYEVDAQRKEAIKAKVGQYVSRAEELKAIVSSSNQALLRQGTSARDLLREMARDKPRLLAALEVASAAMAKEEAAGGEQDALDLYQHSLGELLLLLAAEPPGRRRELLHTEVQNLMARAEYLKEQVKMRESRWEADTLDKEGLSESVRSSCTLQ
Chain of UniProt Q9Y6M4 (whole entry, looked up): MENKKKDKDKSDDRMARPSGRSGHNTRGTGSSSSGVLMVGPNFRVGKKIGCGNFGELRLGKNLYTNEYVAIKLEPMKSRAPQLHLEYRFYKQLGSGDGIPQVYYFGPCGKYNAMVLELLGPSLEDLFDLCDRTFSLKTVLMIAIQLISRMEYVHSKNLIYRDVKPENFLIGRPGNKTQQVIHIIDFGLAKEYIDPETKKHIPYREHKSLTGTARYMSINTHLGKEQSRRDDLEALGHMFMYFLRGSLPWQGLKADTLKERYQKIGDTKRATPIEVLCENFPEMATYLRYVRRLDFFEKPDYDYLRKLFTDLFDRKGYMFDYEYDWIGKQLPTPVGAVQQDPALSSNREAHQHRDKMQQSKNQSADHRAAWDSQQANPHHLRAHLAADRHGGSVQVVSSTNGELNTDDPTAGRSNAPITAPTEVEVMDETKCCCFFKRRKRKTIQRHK
Chain of UniProt Q04912 (whole entry, looked up): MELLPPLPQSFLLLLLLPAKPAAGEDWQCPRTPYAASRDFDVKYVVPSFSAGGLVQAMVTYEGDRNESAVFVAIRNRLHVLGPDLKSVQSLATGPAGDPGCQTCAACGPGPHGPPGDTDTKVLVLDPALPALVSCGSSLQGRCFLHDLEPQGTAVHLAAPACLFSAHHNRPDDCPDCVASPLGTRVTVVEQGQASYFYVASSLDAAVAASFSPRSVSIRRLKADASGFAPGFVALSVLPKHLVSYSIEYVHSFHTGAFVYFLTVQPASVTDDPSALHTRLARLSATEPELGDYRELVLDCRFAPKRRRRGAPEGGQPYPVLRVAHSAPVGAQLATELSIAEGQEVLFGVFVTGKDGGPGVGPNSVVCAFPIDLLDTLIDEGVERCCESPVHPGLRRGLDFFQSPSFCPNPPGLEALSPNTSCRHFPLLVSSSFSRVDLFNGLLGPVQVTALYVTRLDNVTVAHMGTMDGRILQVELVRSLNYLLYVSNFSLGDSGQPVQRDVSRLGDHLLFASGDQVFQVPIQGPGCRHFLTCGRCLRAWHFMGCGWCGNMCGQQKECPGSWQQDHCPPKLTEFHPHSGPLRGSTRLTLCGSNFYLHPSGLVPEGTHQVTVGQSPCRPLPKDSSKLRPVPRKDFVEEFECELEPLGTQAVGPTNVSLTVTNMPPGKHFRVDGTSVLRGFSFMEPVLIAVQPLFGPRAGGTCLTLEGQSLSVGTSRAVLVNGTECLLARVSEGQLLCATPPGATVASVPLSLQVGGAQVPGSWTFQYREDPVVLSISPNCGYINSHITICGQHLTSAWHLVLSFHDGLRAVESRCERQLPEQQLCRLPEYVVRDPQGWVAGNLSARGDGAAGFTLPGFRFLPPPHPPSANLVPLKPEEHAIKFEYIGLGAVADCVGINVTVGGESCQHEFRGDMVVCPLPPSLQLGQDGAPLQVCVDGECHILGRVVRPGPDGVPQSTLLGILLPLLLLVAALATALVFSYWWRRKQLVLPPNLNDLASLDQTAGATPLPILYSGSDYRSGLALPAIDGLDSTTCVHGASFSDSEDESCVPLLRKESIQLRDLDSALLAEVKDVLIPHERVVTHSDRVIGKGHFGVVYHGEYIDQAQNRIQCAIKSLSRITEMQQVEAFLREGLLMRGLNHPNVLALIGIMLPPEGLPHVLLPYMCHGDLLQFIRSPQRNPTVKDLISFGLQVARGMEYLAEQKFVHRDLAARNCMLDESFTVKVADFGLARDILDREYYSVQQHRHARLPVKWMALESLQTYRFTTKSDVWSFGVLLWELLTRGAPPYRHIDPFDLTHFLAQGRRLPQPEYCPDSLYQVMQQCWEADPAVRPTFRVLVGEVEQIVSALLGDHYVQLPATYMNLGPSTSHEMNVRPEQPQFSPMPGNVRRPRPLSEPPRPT
Chain of UniProt Q99558 (whole entry, looked up): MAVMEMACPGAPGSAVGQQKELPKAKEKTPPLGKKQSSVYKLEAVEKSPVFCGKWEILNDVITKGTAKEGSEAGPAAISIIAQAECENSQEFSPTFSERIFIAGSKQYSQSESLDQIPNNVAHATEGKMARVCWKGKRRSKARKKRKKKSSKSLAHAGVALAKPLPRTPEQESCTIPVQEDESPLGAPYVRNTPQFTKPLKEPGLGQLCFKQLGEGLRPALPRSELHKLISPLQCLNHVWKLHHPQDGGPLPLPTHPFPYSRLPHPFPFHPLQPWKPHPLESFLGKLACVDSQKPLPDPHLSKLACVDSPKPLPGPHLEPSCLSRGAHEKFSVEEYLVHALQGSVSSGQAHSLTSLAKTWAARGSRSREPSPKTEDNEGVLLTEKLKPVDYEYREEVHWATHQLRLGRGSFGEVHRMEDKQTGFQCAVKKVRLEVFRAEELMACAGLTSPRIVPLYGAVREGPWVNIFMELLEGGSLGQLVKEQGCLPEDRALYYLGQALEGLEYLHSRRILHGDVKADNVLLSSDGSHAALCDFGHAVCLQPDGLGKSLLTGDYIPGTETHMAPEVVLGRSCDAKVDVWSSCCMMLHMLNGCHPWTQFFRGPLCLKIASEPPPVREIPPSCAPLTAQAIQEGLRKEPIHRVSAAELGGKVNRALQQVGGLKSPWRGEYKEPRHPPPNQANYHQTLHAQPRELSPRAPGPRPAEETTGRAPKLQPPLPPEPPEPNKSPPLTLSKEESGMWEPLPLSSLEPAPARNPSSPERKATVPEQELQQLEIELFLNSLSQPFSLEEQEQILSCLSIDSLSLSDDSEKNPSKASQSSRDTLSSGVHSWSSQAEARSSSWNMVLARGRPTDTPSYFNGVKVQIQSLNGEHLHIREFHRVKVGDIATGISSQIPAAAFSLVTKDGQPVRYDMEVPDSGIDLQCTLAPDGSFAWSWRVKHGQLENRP
Chain of UniProt Q02763 (whole entry, looked up): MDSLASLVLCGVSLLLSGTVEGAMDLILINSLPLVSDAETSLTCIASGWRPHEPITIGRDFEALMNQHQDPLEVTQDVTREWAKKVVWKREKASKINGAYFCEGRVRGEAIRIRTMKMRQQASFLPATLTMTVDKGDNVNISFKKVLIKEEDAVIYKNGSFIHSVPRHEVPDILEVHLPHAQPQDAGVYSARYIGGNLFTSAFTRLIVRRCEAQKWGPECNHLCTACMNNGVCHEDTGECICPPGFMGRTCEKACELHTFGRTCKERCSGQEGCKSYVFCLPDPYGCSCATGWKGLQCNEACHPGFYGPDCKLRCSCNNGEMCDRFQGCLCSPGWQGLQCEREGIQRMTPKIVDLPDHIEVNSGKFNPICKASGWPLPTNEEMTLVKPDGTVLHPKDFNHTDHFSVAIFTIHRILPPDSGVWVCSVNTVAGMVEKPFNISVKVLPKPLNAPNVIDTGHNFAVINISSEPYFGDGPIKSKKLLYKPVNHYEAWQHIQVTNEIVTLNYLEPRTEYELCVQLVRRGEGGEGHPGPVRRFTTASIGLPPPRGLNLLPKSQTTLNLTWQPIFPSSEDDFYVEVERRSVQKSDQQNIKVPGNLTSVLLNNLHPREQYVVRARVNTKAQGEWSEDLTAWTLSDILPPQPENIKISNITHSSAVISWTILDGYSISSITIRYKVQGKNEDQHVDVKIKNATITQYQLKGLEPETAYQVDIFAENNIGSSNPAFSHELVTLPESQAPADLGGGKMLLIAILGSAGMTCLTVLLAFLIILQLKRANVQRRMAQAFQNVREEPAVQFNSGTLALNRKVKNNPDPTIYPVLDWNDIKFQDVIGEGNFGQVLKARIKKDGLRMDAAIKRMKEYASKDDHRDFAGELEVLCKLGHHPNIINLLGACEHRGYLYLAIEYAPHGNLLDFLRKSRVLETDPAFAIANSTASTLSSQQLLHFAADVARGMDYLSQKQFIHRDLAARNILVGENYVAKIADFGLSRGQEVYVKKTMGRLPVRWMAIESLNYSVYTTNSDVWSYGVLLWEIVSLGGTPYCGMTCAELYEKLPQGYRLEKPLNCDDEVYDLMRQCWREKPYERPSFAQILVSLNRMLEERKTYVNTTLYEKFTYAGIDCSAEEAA
Chain of UniProt P10398 (whole entry, looked up): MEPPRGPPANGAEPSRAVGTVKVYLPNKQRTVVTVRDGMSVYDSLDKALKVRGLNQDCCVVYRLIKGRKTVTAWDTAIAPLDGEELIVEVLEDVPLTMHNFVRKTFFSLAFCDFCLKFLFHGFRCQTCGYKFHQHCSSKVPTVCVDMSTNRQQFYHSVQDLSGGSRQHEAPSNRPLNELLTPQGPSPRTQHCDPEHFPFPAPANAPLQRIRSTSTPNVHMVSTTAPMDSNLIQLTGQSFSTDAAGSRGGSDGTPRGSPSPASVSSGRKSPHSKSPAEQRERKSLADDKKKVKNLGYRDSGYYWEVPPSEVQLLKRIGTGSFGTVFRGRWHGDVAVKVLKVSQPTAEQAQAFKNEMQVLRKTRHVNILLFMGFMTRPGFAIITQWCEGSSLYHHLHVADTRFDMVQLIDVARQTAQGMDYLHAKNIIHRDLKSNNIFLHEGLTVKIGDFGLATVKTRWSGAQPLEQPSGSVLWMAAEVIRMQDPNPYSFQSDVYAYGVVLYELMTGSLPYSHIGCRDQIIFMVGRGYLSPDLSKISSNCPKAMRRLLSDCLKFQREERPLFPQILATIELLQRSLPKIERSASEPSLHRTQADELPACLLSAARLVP

Series 1
SMILES: O=C(N[C@H]1CCCCC/C=C\C2C[C@@]2(C(=O)O)NC(=O)[C@@H]2C[C@@H](Oc3ccncc3)CN2C1=O)OC1CCCC1 (stereo partly shown)
Technique: competition with immobilised ligand
Tested at: 1 µM
| target | read-out | remaining binding |
| --- | --- | --- |
| LTK (Homo sapiens, UniProt P29376) | cell-free assay | 99% |
| PIK3CA (Homo sapiens, UniProt P42336, H1047L) | binding | 100% |
| BMP2K (Homo sapiens, UniProt Q9NSY1) | binding | 96% |
| KIT (Homo sapiens, UniProt P10721) | binding | 91% |
| DCLK1 (Homo sapiens, UniProt O15075) | binding | 97% |
| TAOK3 (Homo sapiens, UniProt Q9H2K8) | binding | 100% |
| MAP3K1 (Homo sapiens, UniProt Q13233) | binding | 84% |
| RPS6KB1 (Homo sapiens, UniProt P23443) | binding | 89% |

Series 2
Target: Eukaryotic initiation factor 4A-I (EIF4A1, Homo sapiens, UniProt P60842, residues 1-406, full length assumed)
Technique: RNA Bind-n-Seq
Form: RNA
Matrix: in vitro
Tested at: 15 pmol
Setting: 4-mer, random 30-nt RNA, single round
Together with: 3 µM RocA, 2 mM AMP-PNP
Reference: mean of 4-mers
Reading: higher = stronger binding
| Strand | 4-mer enrichment Z-score |
| --- | --- |
| AUCA | -1.21 |
| GAGG | 1.82 |
| AUUA | 0.0873 |
| GUUG | 0.94 |
| UCAU | -1.59 |
| AGGG | 1.64 |
| GGCU | -0.0555 |
| GAUA | 0.762 |

Series 3
SMILES: COc1cc2ncnc(Nc3cccc(Cl)c3)c2cc1OC
Read-out: enzyme activity
Mode: inhibitor
Tested at: 0.5 µM
Reference: control
| target | remaining activity |
| --- | --- |
| GRK7 (Homo sapiens, UniProt Q8WTQ7) | 85.4% |
| MAP3K14 (Homo sapiens, UniProt Q99558) | 107% |
| ULK3 (Homo sapiens, UniProt Q6PHR2) | 77.3% |
| CSNK1G3 (Homo sapiens, UniProt Q9Y6M4) | 92.4% |
| FGFR1 (Homo sapiens, UniProt P11362) | 84.9% |
| MST1R (Homo sapiens, UniProt Q04912) | 87.8% |
| ARAF (Homo sapiens, UniProt P10398) | 108% |
| WEE1 (Homo sapiens, UniProt P30291) | 92.4% |
| FGFR3 (Homo sapiens, UniProt P22607) | 88.5% |
| TBK1 (Homo sapiens, UniProt Q9UHD2) | 78% |
| TEK (Homo sapiens, UniProt Q02763) | 88.6% |

Other studies, line by line
Technique: cross-linking MS
Matrix: cell fractions
| Substance | partner | together with | cross-linked residues |
| --- | --- | --- | --- |
| RRS1 (Homo sapiens, UniProt Q15050) | RPF2 (Homo sapiens, UniProt Q9H7B2) | DMTMM | E94 to K244 |
| DDX6 (Homo sapiens, UniProt P26196) | LSM12 (Homo sapiens, UniProt Q3MHD2) | DSSO | K269 to K154 |
| EIF4A1 (Homo sapiens, UniProt P60842) | EIF4G2 (Homo sapiens, UniProt P78344) | DMTMM | D125 to K313 |
| FKBP4 (Homo sapiens, UniProt Q02790) | SAMD4A (Homo sapiens, UniProt Q9UPU9) | DSSO | K274 to T424 |

Repeated from above (series 1):
| target | read-out | remaining binding |
| --- | --- | --- |
| KIT (Homo sapiens, UniProt P10721) | binding | 91% |
| DCLK1 (Homo sapiens, UniProt O15075) | binding | 97% |
| TAOK3 (Homo sapiens, UniProt Q9H2K8) | binding | 100% |
